Assay results pooled from the literature.
Every numbered part comes from another study and shows a few of its results, in no order.

Study 1
Target: RNA binding protein fox-1 homolog 2, RRM domain, GST-SBP tag (RBFOX2, Homo sapiens, UniProt O43251-10, residues 100-194)
Technique: RNA Bind-n-Seq
Molecule type: RNA
Sample: in vitro
Tested at: 365 nM
Notes: natural RNA segment, single round, ends assumed
Reference: no-protein control
Direction: higher = stronger binding
All sequences stand within: GGGAGUUCUACAGUCCGACGAUC … UGGAAUUCUCGGGUGCCAA
Target sequence (chain): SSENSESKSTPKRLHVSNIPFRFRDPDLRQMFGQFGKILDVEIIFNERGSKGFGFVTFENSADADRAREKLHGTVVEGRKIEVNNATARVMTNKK
Strand	RBNS enrichment (R)
UCUCAUGCUGGCUUCUUCAGAUACUUUGAAAAACCCGGACAGCCACACCAGAGAGGCCUUAUAGCGGCCCCGGAGCUAAACGCACCAGAGAAAAACCAGUGCUUCCUACU	0.23
UCCCCAUCUCAGGGUCAGACCAGCCUUCUCUCUUUACCUUCUUUAACCUGUCUCCCCUCCCUGGUUGGUUGAGUUGAAGAAGAAGAAAGAAAGCUGAGGAGAGGGGGAAG	0.347
CUCCUAGGUGCAUGAUUCAGUGCGUGCCAUGUGUCAUUAGCUUUUACUGAUAACCAUAUUCUGGCUUGUUCCCUUACCCCCUACUUCUAUCCAAUUUUCUCUGCUAGGGG	11.4
GCCCUGACAUGGCCUGGAGACAUUUUCCCCAUGGUGUUGGGGAUUAACAUUAGGCUCCUUGCUACUUAUGCAAAUUUCUGCAGCUGGCUUGAAUUUCUCCCCAGAAAAUG	0.589
GAAAGAGAAUAGUAAAUGCCUUUGGGAACACGGUUGAGAGCCAGCCAGGACGCAAGGGGAGCAAUGAAUGUCUGUGUCUGAUAUGCUCCUCCCAGGUUGGUGUCCCACUG	2.71
UGUCUUUCUGGUGCCCAAACUUUCAGGCACUUUUCAAAUUUAAUAAGGAACCAUGUAAUGGUAGCAGUACCUCCCUAAAGCAUUUUGAGGUAGGGGAGGUAUCCAUUCAU	0.765
UCUCCCUGUGUCAGAUGAUAUGUCCUUGAAGCUGGCAGGGGAUUCCCAGUCCAGGGAAUAUCCCUACAUGAUUUUUGUCAUUCAUGGGUCCUCCCUGGGCCUGACAACGG	1.79
UUUUUCUUAACUUGAUCUGCAAUCCAGAAUUAGACCACAAUGCACCUUUGGUGGUAUCCAUAUAGGAUGCUAGCCUGCCUUGUAGUAAUGUUUUAUAUGUUAAAAACAAA	0.522

Study 2
Target: RING finger protein unkempt homolog, zinc fingers 1-6, GST-SBP tag (UNK, Homo sapiens, UniProt Q9C0B0, residues 30-357)
Technique: RNA Bind-n-Seq
Molecule type: RNA
Sample: in vitro
Tested at: not given
Notes: RNA with constant flanks, human and mouse sites, ends assumed
Reference: input RNA pool
Direction: higher = stronger binding
All sequences stand within: GGGAGUUCUACAGUCCGACGAUC … CAACAGAGGAUUGAGCAUCA
Construct (chain): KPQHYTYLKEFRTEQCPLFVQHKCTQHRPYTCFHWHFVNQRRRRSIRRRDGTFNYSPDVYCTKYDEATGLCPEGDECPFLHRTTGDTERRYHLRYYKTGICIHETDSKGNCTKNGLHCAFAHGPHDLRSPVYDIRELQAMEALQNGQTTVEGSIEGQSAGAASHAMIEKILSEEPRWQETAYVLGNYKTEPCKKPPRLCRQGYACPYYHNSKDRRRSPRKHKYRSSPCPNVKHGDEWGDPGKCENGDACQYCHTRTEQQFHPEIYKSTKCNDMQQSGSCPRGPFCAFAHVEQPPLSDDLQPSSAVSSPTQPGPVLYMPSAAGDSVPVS
Strand	bound/input enrichment [ratio]
UAUUCAAUGGAUUCACUUUCCAGUUGGUAUAUGACUGUCACACAGAAGACGGACCCAAAAAUGCUAAGCAAAAAAAGGACUACUUCUAGCCAAUGGCAGUCUCCUCCUGUUGUCGUUAUC	0.0737
GAAAAGGUGGAACUAGUAACAGGAGAAGAAGAUGAAAAAGUUUUGUAUUCACAAAGGGUGAAAUUAUUUAGAUUUGAUGCUGAGAUAAGUCAGUGGAAAGAAAGGGGUUUGGGGAAUUUA	3.99
UAAGGGUGAUGCUUUAUUGCGGUUCUGAGACUUGAAAACUAUUGGUAUUUUUUAUCUCUUUUGUUCAUGACAAGCGUAUAUAACAUGUAUUAAUAUUUUCUUAGUCUAGGUACUUACUGU	0.569
UCCUUUGUCCUUGGAUUACUUAAGAGUUCCCAGAAAUACAUUUGCCACCAACAGAGUAGCCAAAUUUAUAAGGAAAAAUGAUUCCCAAUGGAUAUUUGAUGUUUGAGGAUGAAAAUUUUA	0.279
GACCUAGCAAAUAAAAGAGCAGUAGAUUUCCAGGAAGCACAGUCCUAUGCAGAUGACAAUAGUUUAUUAUUCAUGGAGACAUCCGCUAAAACAUCAAUGAAUGUAAAUGAAAUAUUCAUG	1.42
UGGACAGAAAAGAUAAUGAAGCAGACCGAAGUGCUGUUGCAGCCAAAUCCAAAUGCCAGGAUAGAAGAAUUUGUUUAUGAGAAACUGGAUAGAAAAGCACCAAGUCGUAUAAACAACCCG	0.522
GAAUUUGCCUAUACUUCUGUACUAAGUUUUGAUUUCUGUAGCAUGGCUGAUGUAGCCAUCUUAGCUCGUCAUCUUUUCAUGUCAGAAGUCUUAGAGAUUUGUGAAAGUGUACAUAAGCUA	0.297
UACAUUGUAGUCAGCUACUUUUCAGAGCUUUUCCAUUUGCUGUCUCAGGGAAAUCGUAAGACUAGGAAUCUUGUUUUGAAAGUAUUUUUGAAUAUGUCUGAAAAUCCCAAGGCAGCCAGA	0.349

Study 3
Target: Histone acetyltransferase KAT6A, both winged helices, GST fusion (KAT6A, Homo sapiens, UniProt Q92794, residues 1-181)
Technique: protein binding microarray
Molecule type: double-stranded DNA, one strand shown
Sample: in vitro
Tested at: not given
Notes: 8-mer, flanks averaged, mean of 2 arrays, mostly near background
Reference: not given
Direction: higher = stronger binding
Construct (chain): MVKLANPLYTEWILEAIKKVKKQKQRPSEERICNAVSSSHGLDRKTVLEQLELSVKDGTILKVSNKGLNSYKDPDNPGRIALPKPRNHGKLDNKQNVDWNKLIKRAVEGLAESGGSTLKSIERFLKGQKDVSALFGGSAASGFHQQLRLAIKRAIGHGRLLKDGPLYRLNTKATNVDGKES
Strand	E-score
ACTAGCAC	-0.0198
CGTAGCCA	0.0879
ACCGTAGC	0.0702
ATATGGTA	-0.0624
GATCGTCA	-0.0534
GGTGCGTA	0.0919
CAGCAACG	0.0123
AAGAACAA	-0.00321
AAGTATCC	-0.0812
CTAAACAC	0.00516
CCGAGCCC	0.0303
CTTCGCGC	0.269
ACACCGCC	0.106
CCGCCTCA	0.222
CCCATGCG	0.114
ATACGACA	-0.168
ATAGCCCA	-0.243
CATTAACG	0.0328

Study 4
Target: Probable WRKY transcription factor 11, DNA-binding domain (WRKY11, Arabidopsis thaliana, UniProt Q9SV15, residues 228-325)
Technique: DNA-protein interaction ELISA
Molecule type: double-stranded DNA, one strand shown
Sample: in vitro, bacterial lysate
Tested at: not given
Notes: whole dsDNA probe, crude lysate protein
Reference: highest signal in screen
Direction: higher = stronger binding
Construct (chain): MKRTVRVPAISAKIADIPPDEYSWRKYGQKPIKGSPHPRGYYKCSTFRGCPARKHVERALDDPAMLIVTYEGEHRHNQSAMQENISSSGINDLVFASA
Strand	relative absorbance
AAAAAATGAATCAATTTTTGGGCTTTAAAA	12.7 % of maximum
AAAAAATTTGTACTTTAAGTTTACATAAAA	14.4 % of maximum
AAAAAAAGGTCATTGCTGCTGGTGTTAAAA	19 % of maximum
AAAAAATTTGCGCTTCATCCTGCCCCAAAA	18.4 % of maximum
AAAAAATGCAGACCTTCAGCTGGGTAAAAA	16.4 % of maximum
AAAAAACCGTATGTATATCTATATGTAAAA	9.8 % of maximum
AAAAAATCGGGCCCCGTTAGCACTCTAAAA	16.7 % of maximum
AAAAAAATCGTTGTTATCGTATTTATAAAA	13.8 % of maximum
AAAAAACTCGCGCTTGCATCTGTGCGAAAA	14.7 % of maximum
AAAAAATGGATCTTTACTTTAGGCCAAAAA	17.9 % of maximum
AAAAAACTGCTAATCGGTGACCCGATAAAA	21.6 % of maximum
AAAAAACCACCCAGTCTGTTTCTACTAAAA	12.7 % of maximum
AAAAAATTGGCACACATGATCTCGGGAAAA	13.8 % of maximum
AAAAAAGGCCTTCGCTCGTGTTTACGAAAA	10.7 % of maximum
AAAAAAATCTTTGCGTCGAGATTCTTAAAA	15.6 % of maximum
AAAAAACTGTGTCCCCGTCCCATCTCAAAA	12.7 % of maximum
AAAAAATATCATTGTTACCGTTGCTAAAAA	10.9 % of maximum
AAAAAATTTCTCCTTCTTTGTTCTTCAAAA	16.1 % of maximum
AAAAAATCACAATACCTTCTCGTCATAAAA	14.4 % of maximum
AAAAAATCCTGTTTGCGTTTGATTTTAAAA	12.7 % of maximum
AAAAAAGGCTTCCACTTTGAGTTTGCAAAA	14.4 % of maximum
AAAAAAATTCGCAACCCTCACGTTCGAAAA	18.2 % of maximum
AAAAAATGAGAGAATTTCCGGTTCAGAAAA	15.6 % of maximum

A few entries again (study 1):
Strand	RBNS enrichment (R)
CUCCUAGGUGCAUGAUUCAGUGCGUGCCAUGUGUCAUUAGCUUUUACUGAUAACCAUAUUCUGGCUUGUUCCCUUACCCCCUACUUCUAUCCAAUUUUCUCUGCUAGGGG	11.4
GCCCUGACAUGGCCUGGAGACAUUUUCCCCAUGGUGUUGGGGAUUAACAUUAGGCUCCUUGCUACUUAUGCAAAUUUCUGCAGCUGGCUUGAAUUUCUCCCCAGAAAAUG	0.589
GAAAGAGAAUAGUAAAUGCCUUUGGGAACACGGUUGAGAGCCAGCCAGGACGCAAGGGGAGCAAUGAAUGUCUGUGUCUGAUAUGCUCCUCCCAGGUUGGUGUCCCACUG	2.71
UGUCUUUCUGGUGCCCAAACUUUCAGGCACUUUUCAAAUUUAAUAAGGAACCAUGUAAUGGUAGCAGUACCUCCCUAAAGCAUUUUGAGGUAGGGGAGGUAUCCAUUCAU	0.765
UCUCCCUGUGUCAGAUGAUAUGUCCUUGAAGCUGGCAGGGGAUUCCCAGUCCAGGGAAUAUCCCUACAUGAUUUUUGUCAUUCAUGGGUCCUCCCUGGGCCUGACAACGG	1.79
UUUUUCUUAACUUGAUCUGCAAUCCAGAAUUAGACCACAAUGCACCUUUGGUGGUAUCCAUAUAGGAUGCUAGCCUGCCUUGUAGUAAUGUUUUAUAUGUUAAAAACAAA	0.522
